Experimental data collected from several papers.
A part holds a random share of what one study measured. “And” joins repeats or separate records; there may be more than shown. Numbers after ± are the reported error.
Chain of UniProt Q8JUX6 (whole entry, looked up): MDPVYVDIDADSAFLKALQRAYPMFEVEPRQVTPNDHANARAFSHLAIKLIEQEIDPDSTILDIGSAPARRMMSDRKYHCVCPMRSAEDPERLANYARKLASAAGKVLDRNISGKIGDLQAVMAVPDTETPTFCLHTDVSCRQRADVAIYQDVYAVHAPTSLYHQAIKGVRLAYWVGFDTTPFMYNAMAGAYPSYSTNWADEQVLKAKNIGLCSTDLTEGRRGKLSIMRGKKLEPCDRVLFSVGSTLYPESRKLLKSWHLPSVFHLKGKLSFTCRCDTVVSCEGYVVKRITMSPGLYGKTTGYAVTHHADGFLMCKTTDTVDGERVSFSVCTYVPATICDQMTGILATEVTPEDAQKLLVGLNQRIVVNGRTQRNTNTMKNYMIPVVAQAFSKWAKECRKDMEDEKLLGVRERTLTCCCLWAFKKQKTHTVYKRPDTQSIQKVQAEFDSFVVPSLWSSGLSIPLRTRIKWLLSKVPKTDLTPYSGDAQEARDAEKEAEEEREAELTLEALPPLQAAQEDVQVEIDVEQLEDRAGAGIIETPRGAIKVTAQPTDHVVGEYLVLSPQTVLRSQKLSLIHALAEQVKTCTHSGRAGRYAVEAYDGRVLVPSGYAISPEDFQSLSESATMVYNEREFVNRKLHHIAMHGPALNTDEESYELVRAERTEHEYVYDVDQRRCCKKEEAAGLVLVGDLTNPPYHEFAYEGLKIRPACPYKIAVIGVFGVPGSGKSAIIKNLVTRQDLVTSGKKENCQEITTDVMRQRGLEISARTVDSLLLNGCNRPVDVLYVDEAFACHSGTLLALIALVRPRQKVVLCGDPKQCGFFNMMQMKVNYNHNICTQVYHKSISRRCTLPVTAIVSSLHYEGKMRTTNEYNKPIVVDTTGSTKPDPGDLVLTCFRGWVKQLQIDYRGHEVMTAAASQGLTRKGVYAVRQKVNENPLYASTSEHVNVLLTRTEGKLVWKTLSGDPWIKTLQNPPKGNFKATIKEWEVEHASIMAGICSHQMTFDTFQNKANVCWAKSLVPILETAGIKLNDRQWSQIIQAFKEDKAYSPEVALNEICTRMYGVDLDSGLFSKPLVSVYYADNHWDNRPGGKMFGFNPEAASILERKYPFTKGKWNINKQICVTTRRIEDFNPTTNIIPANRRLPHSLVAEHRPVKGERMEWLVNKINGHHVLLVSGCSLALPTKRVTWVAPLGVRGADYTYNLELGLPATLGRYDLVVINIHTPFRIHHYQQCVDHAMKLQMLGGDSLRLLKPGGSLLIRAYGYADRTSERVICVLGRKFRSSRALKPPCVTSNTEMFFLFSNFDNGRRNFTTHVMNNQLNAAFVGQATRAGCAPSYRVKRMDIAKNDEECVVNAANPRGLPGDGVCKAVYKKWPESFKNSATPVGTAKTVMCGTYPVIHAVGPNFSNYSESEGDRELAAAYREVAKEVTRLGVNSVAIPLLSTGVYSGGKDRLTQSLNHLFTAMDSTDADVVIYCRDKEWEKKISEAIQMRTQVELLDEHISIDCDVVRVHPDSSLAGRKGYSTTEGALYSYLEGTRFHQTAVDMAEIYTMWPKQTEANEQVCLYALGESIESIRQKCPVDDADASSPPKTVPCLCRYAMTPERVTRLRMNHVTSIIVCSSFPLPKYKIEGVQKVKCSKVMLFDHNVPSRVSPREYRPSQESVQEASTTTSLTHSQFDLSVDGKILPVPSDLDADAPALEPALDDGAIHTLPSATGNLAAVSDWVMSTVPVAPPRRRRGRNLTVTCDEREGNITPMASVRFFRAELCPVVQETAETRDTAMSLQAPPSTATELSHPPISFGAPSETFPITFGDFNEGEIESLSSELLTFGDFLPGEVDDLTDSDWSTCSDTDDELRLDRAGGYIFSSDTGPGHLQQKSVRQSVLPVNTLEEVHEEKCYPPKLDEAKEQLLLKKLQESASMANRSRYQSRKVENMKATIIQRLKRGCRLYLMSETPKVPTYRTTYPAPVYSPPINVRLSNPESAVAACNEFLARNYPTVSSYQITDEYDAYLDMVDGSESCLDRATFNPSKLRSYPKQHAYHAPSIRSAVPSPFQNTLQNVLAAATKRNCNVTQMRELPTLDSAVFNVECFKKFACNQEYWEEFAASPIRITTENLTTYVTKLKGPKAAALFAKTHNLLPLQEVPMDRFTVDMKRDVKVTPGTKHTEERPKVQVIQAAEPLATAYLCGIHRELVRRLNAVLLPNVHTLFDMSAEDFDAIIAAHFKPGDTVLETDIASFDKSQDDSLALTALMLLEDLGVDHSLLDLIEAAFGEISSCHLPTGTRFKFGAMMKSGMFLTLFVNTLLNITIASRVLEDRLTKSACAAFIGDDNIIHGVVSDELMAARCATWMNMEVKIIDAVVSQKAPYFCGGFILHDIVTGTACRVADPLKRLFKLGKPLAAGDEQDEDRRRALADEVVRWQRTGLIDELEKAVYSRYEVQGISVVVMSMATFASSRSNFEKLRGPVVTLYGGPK
Chain of UniProt Q81Y92 (whole entry, looked up): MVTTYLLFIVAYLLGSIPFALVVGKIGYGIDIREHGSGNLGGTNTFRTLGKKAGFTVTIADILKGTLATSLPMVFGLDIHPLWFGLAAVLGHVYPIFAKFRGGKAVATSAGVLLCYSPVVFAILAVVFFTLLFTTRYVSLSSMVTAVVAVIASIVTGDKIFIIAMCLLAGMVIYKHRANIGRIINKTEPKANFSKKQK

Study 1
Target: Replicase polyprotein 1ab, polymerase (rep, Severe acute respiratory syndrome coronavirus 2, UniProt P0DTD1)
Observed: enzyme activity
Action: inhibitor
Concentration: 20 µM
Structure (SMILES) | inhibition
Cc1ncc(CO)c(C=O)c1O | 2.87%
CC(C)OC(=O)[C@H](C)N[P@@](=O)(OC[C@H]1O[C@@H](n2ccc(=O)[nH]c2=O)[C@](C)(F)[C@@H]1O)Oc1ccccc1 | -5.94%
CC(C)NCC(O)c1ccc(N)c(C#N)c1 (centres unmarked) | 0.09%
N#Cc1c(N)nc(SCC(N)=O)c(C#N)c1-c1ccc(OCC2CC2)cc1 | 0.73%
CCC1NC(=O)c2cc(S(N)(=O)=O)c(Cl)cc2N1 (centres unmarked) | -4.98%
Cc1cc(C)c(S(=O)(=O)n2cc(C)cc2C)c(C)c1 | -8.23%
CO[C@H]1/C=C\C=C(/C)C(=O)NC2=CC(=O)C(NCCN(C)C)=C(C[C@@H](C)C[C@H](OC)[C@H](O)[C@@H](C)/C=C(\C)[C@@H]1OC(N)=O)C2=O | 5.34%
Cn1cc(-c2ccc3nnc(Sc4ccc5ncccc5c4)n3n2)cn1 | 0.68%
O=C(O)CCc1c(C(=O)O)[nH]c2cc(Cl)cc(Cl)c12 | 3.67%
Nc1ccn([C@@H]2C(F)=C(CO)[C@@H](O)[C@H]2O)c(=O)n1 | 1.58%
CCCN(CCC)[C@@H]1CCc2c(OC)cccc2[C@@H]1C | -2.53%
[O-][S+](c1ccccc1)c1ccc2nnnn2n1 (centres unmarked) | 0.49%
Cc1cc(C)c(Nc2ccnc(Nc3ccc(C#N)cc3)n2)c(C)c1 | -6.92%
CN(C(=O)CN(CCO)CC(=O)N(C)C(C)(C)Cc1ccccc1)C(C)(C)Cc1ccccc1 | 0.07%
CN(Cc1ccccc1)C(=O)[C@H](Cc1ccc2ccccc2c1)NC(=O)[C@@H]1CCCN1C(=O)Nc1ccccc1[N+](=O)[O-] | -2.41%
COc1nccnc1NS(=O)(=O)c1ccc(N)cc1 | 2.45%
CCCCN1C[C@H](O)[C@@H](O)[C@H](O)[C@H]1CO | 3.3%
CC[N+](CC)(CC)CCOc1cccc(OCC[N+](CC)(CC)CC)c1OCC[N+](CC)(CC)CC | 10.9%
O=[N+]([O-])c1cccc2c(Br)[nH]nc12 | -4.99%
OCc1ccc(CO)o1 | -3.02%
CN1C(=O)OC(C)(C)C1=O | -2.24%
OC[C@@H](O)[C@@H](O)[C@@H](O)CO | -2.37%
CC1(C)O[C@@H]2C[C@H]3[C@@H]4C[C@H](F)C5=CC(=O)C=C[C@]5(C)[C@H]4[C@@H](O)C[C@]3(C)[C@]2(C(=O)CO)O1 | 18.5%
C/C=C(/C(=C/C)c1ccc(O)cc1)c1ccc(O)cc1 | -5.53%
CCOc1nc2cccc(C(=O)OCc3oc(=O)oc3C)c2n1Cc1ccc(-c2ccccc2-c2noc(=O)[nH]2)cc1 | 7.15%

Study 2
Cell line: mouse MPNST tumor cells
Technique: high-content immunofluorescence imaging
Refers to: nuclear SOX9
Concentration: 10 µM
Time: 12 h
Notes: mean of 2 replicates
Reference: DMSO control
Direction: higher = more nuclear SOX9
SMILES | nuclear SOX9 intensity
COc1ccc(-n2nc(C(F)(F)F)cc2-c2ccc(Cl)cc2)cc1 | 105 % of DMSO
OC1CCCCC1N1CCC(c2ccccc2)CC1 (centres unmarked) | 104 % of DMSO
COc1cc2c(cc1OC)C1CC(=O)C(CC(C)C)CN1CC2 (centres unmarked) | 112 % of DMSO and 84.7 % of DMSO

Study 3
Target: Replicase polyprotein 1ab, main protease (rep, Severe acute respiratory syndrome coronavirus 2, UniProt P0DTD1)
Observed: enzyme activity
Action: inhibitor
Notes: no DTT
SMILES | IC50 [µM]
O=[N+]([O-])c1ccc(O)c2ncccc12 | > 20
CNc1nc(Nc2cn(C(C)(C)C#N)nc2C)ncc1C(F)(F)F | 9.5
C[n+]1c2cc(N)ccc2cc2ccc(N)cc21 | 5

Mixed results
Spike glycoprotein: Spike glycoprotein (Severe acute respiratory syndrome coronavirus 2, UniProt P0DTC2)
rep main protease: Replicase polyprotein 1ab, main protease (rep, Severe acute respiratory syndrome coronavirus 2, UniProt P0DTD1)
Structure (SMILES) | tested on | assay | test system | setting | how to read | measurement | result
CC1=C(/C=C/C(C)=C/C=C/C(C)=C/C(=O)Nc2ccc(O)cc2)C(C)(C)CCC1 | Severe acute respiratory syndrome coronavirus 2 | viral replication, inhibitor |  | 5 µM |  | inhibition | ~60%
CO[C@H]1C[C@@H]2CC[C@@H](C)[C@@](O)(O2)C(=O)C(=O)N2CCCC[C@H]2C(=O)O[C@H]([C@H](C)C[C@@H]2CC[C@@H](O)[C@H](OC)C2)CC(=O)[C@H](C)/C=C(\C)[C@@H](O)[C@@H](OC)C(=O)[C@H](C)C[C@H](C)/C=C/C=C/C=C/1C | Spike glycoprotein | binding, BLI |  |  |  | koff | 0.194 s⁻¹
Cn1cnc(Cn2c(=O)[nH]/c(=N\c3cc4cn(C)nc4cc3Cl)n(Cc3cc(F)c(F)cc3F)c2=O)n1 |  |  | human, moderate renal impairment | oral, 375 mg |  | anaemia TEAE, Moderate severity | 0%
Nc1nc(Cl)nc2c1ncn2[C@H]1C[C@H](O)[C@@H](CO)O1 | HEK-293T | pseudovirus infection, FDA-approved drug library screen | VSV pseudotyped with SARS-CoV-2 spike | 10 µM, 16 h | reference: vehicle-treated | GFP-positive cells | 75.8%
CCC(CC)COC(=O)[C@H](C)N[P@](=O)(OC[C@H]1O[C@@](C#N)(c2ccc3c(N)ncnn23)[C@H](O)[C@@H]1O)Oc1ccccc1 | SARS-CoV-2 | viral replication, plaque assay and RT-qPCR | Vero E6 |  |  | effective concentration | ≥ 3 µM
CC(C)(O)[C@H]1CC[C@@](C)([C@H]2[C@@H](O)C[C@@]3(C)[C@@H]4C[C@H](O[C@@H]5O[C@H](CO)[C@@H](O)[C@H](O)[C@H]5O)[C@H]5C(C)(C)[C@@H](O[C@@H]6OC[C@@H](O)[C@H](O)[C@H]6O)CC[C@@]56C[C@@]46CC[C@]23C)O1 | Spike glycoprotein | binding, biolayer interferometry |  |  |  | Kd | 111 µM
CN(C)C1CCN(C(=O)c2cc3ccccc3n2C)CC1 | Marburg virus | pseudovirus entry | A549 |  |  | EC50 | > 100 µM
N#C[C@@]1(n2ccc(N)nc2=O)O[C@H](CO)[C@@H](O)[C@H]1O | SARS-CoV-2 | viral replication, qRT-PCR of viral RNA | Calu-3, Washington |  |  | EC50 | 0.7 ± 0.3 µM
O=C(N1CCC2(CC1)C[C@H](CN1CCCCS1(=O)=O)CCO2)C1(c2ccccc2)CCCC1 | Polyprotein P1234, nsP2 (Chikungunya virus, UniProt Q8JUX6) | ATPase activity, inhibitor |  | full-length nsP2 |  | IC50 | 0.84 µM
O=c1cc(-c2ccc(O)c(O)c2)oc2cc(O)cc(O)c12 | Replicase polyprotein 1ab, nsp14 N7-methyltransferase (rep, Severe acute respiratory syndrome coronavirus 2, UniProt P0DTD1) | N7-methyltransferase activity, inhibitor, Py-FLINT |  |  |  | Hill slope | 1.03 ± 0.12
CC(C)(C)[C@H](NC(=O)C(F)(F)F)C(=O)N1C[C@@H]2CCC[C@@H]2[C@H]1C(=O)N[C@H](C#N)C[C@@H]1CCNC1=O | SARS-CoV-2 | viral replication, qRT-PCR viral RNA | Vero E6 | 10 µM |  | inhibition | 90%
C=CCN1CC[C@@]2(C)c3cc(O)ccc3C[C@@H]1[C@@H]2C | SARS-CoV-2 | viral replication, RT-qPCR | A549 expressing ACE2 |  |  | IC50 | > 10 µM
Cc1conc1C(=O)N1Cc2ccccc2C[C@H]1CNC(=O)c1cccc2[nH]ncc12 | rep main protease | enzyme activity, inhibitor |  | 5 µM, run 1 |  | inhibition | 9.9%
Cc1cncc(C(=O)N2CCC(=C3c4ccccc4CCc4ccccc43)CC2)c1 | SARS-CoV-2 | viral replication | USA-WA1/2020 | 24 h |  | EC50 | 0.2 µM
O=C(CCCCCCCCCCOc1ccccc1)CP(=O)(O)O | Glycerol-3-phosphate acyltransferase 3 (plsY3, Bacillus anthracis, UniProt Q81Y92) | inhibitor |  | 200 µM |  | inhibition | 55%
CCN(CC)CCOC(=O)C(O)(c1ccccc1)c1ccccc1 | SARS-CoV-2 | viral replication | A549 expressing ACE2 | inactive set pIC50 4 |  | IC50 | > 10 µM
CN(C)c1ccc(N(Cc2cc(Cl)cs2)C(=O)Cc2cncc3ccccc23)cc1 | SARS-CoV-2 | nucleocapsid staining | Caco-2, Omicron BA.5 |  |  | EC50 | 0.1 ± 0.09 µM
CC1=C2CC(C(=O)N[C@@H]3CN(C(=O)c4ccc5ccnn5c4)Cc4nccn4C3)=CN=C2NN1 | rep main protease | enzyme activity, inhibitor |  | 5 µM, run 1 |  | inhibition | 11.9%
CC[C@H](C)[C@H](NC(=O)[C@H](CC(C)C)NC(=O)[C@H](Cc1c[nH]c2ccccc12)NC(=O)[C@H](CCC(N)=O)NC(=O)[C@@H](NC(=O)[C@H](Cc1ccccc1)NC(=O)[C@H](C)NC(=O)[C@H](CCCCNC(=O)COCCOCCNC(=O)COCCOCCNC(=O)CC[C@H](NC(=O)CCCCCCCCCCCCCCCCCCC(=O)O)C(=O)O)NC(=O)[C@H](CCC(N)=O)NC(=O)[C@H](C)NC(=O)[C@@H](NC(=O)[C@H](CCCCN)NC(=O)[C@H](CC(=O)O)NC(=O)[C@H](CC(C)C)NC(=O)C(C)(C)NC(=O)[C@@H](NC(=O)[C@H](CO)NC(=O)[C@H](Cc1ccc(O)cc1)NC(=O)[C@H](CC(=O)O)NC(=O)[C@H](CO)NC(=O)[C@@H](NC(=O)[C@H](Cc1ccccc1)NC(=O)[C@@H](NC(=O)CNC(=O)[C@H](CCC(=O)O)NC(=O)C(C)(C)NC(=O)[C@@H](N)Cc1ccc(O)cc1)[C@@H](C)O)[C@@H](C)O)[C@@H](C)CC)[C@@H](C)CC)C(C)C)C(=O)N[C@@H](C)C(=O)NCC(=O)NCC(=O)N1CCC[C@H]1C(=O)N[C@@H](CO)C(=O)N[C@@H](CO)C(=O)NCC(=O)N[C@@H](C)C(=O)N1CCC[C@H]1C(=O)N1CCC[C@H]1C(=O)N1CCC[C@H]1C(=O)N[C@@H](CO)C(N)=O |  |  | healthy subjects, single ascending dose | 8.0 mg, postbaseline |  | treatment-emergent ADA positive subjects | 0%

For quick reference, copied from above (study 1):
Structure (SMILES) | inhibition
[O-][S+](c1ccccc1)c1ccc2nnnn2n1 (centres unmarked) | 0.49%
Cc1cc(C)c(Nc2ccnc(Nc3ccc(C#N)cc3)n2)c(C)c1 | -6.92%
CN(C(=O)CN(CCO)CC(=O)N(C)C(C)(C)Cc1ccccc1)C(C)(C)Cc1ccccc1 | 0.07%
CN(Cc1ccccc1)C(=O)[C@H](Cc1ccc2ccccc2c1)NC(=O)[C@@H]1CCCN1C(=O)Nc1ccccc1[N+](=O)[O-] | -2.41%
COc1nccnc1NS(=O)(=O)c1ccc(N)cc1 | 2.45%
